# Results collected from several papers.
# ± gives the spread as reported.
# Cereblon/Ikaros: Cereblon/Ikaros (Homo sapiens, UniProt Q13422+Q96SW2)
# UniProt Q13422, sequence (whole entry, looked up): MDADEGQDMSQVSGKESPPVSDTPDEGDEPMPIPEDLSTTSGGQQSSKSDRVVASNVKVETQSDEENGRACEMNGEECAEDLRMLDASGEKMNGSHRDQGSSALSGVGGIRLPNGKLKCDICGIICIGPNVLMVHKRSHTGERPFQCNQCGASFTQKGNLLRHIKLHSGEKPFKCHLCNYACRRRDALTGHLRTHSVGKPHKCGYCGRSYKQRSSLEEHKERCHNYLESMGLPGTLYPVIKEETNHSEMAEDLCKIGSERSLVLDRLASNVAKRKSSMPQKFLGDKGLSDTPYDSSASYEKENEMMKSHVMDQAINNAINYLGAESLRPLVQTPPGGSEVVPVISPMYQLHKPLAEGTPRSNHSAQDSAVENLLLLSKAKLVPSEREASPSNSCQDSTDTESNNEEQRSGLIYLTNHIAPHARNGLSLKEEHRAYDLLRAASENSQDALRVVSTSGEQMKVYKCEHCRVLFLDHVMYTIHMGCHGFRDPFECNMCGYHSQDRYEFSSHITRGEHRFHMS
# UniProt Q96SW2, sequence (whole entry, looked up): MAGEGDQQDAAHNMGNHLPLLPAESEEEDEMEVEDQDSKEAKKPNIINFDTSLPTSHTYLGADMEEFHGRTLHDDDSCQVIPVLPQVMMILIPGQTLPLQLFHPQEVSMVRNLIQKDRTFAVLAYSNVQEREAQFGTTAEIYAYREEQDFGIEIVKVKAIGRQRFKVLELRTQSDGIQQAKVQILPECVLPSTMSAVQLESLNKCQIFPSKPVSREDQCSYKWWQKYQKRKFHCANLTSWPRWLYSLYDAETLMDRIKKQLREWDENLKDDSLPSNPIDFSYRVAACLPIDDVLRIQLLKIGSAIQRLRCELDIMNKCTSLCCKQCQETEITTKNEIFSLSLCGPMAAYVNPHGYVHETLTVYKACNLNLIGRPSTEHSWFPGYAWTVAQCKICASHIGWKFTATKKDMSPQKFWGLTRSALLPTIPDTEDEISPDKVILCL
# IDE: Insulin-degrading enzyme (IDE, Homo sapiens, UniProt P14735)
# Urea transporter 1: Urea transporter 1 (Homo sapiens, UniProt Q13336)
# UniProt Q13336, sequence (whole entry, looked up): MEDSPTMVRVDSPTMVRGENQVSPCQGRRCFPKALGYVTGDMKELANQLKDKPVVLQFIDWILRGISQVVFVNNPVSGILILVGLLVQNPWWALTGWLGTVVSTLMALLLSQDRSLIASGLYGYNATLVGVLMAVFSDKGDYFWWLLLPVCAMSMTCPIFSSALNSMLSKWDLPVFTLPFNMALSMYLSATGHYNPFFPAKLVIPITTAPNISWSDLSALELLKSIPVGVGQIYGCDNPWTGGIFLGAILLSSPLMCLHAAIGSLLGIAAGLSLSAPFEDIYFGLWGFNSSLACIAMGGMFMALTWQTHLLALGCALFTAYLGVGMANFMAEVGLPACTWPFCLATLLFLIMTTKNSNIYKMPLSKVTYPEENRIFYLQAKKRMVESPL
# USP33 ZnF-UBD domain: Ubiquitin carboxyl-terminal hydrolase 33, ZnF-UBD domain (USP33, Homo sapiens, UniProt Q8TEY7)
# UniProt Q8TEY7, sequence (whole entry, looked up): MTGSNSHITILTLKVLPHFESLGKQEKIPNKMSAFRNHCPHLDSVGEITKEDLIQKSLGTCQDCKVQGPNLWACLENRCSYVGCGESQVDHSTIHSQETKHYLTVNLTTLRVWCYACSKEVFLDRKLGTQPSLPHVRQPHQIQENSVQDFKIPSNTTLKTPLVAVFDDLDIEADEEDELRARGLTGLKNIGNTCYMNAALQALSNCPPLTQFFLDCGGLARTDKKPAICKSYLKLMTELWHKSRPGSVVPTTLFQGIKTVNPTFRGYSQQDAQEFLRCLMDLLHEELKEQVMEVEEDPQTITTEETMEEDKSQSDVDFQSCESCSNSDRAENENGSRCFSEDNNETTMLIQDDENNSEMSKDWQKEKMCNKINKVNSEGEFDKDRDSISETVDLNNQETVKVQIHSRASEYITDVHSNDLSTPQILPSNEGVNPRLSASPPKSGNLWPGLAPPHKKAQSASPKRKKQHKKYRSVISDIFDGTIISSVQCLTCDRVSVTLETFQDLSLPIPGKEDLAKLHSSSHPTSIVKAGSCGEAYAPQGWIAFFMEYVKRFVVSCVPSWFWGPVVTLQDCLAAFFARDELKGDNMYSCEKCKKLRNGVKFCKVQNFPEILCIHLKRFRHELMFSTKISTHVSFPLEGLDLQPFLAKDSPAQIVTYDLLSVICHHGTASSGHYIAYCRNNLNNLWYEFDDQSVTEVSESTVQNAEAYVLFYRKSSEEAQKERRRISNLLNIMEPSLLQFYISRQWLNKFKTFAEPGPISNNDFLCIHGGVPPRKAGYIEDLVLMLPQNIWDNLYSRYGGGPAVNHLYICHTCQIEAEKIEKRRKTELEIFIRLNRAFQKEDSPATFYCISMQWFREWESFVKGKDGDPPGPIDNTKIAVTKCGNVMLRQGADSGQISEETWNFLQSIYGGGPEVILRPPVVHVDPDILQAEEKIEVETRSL
# UniProt P39146, sequence (whole entry, looked up): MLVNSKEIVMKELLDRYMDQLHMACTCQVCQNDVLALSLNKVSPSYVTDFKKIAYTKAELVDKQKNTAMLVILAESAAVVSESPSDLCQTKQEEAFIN
# UniProt Q9NZQ7, sequence (whole entry, looked up): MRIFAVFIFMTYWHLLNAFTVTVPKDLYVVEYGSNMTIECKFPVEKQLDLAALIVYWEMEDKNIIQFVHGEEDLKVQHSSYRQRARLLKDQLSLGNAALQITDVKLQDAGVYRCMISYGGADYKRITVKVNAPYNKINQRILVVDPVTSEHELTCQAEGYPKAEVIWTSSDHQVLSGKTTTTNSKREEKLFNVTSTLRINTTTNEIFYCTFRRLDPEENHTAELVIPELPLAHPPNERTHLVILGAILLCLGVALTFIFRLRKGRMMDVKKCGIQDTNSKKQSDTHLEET
# UniProt P11607, sequence (whole entry, looked up): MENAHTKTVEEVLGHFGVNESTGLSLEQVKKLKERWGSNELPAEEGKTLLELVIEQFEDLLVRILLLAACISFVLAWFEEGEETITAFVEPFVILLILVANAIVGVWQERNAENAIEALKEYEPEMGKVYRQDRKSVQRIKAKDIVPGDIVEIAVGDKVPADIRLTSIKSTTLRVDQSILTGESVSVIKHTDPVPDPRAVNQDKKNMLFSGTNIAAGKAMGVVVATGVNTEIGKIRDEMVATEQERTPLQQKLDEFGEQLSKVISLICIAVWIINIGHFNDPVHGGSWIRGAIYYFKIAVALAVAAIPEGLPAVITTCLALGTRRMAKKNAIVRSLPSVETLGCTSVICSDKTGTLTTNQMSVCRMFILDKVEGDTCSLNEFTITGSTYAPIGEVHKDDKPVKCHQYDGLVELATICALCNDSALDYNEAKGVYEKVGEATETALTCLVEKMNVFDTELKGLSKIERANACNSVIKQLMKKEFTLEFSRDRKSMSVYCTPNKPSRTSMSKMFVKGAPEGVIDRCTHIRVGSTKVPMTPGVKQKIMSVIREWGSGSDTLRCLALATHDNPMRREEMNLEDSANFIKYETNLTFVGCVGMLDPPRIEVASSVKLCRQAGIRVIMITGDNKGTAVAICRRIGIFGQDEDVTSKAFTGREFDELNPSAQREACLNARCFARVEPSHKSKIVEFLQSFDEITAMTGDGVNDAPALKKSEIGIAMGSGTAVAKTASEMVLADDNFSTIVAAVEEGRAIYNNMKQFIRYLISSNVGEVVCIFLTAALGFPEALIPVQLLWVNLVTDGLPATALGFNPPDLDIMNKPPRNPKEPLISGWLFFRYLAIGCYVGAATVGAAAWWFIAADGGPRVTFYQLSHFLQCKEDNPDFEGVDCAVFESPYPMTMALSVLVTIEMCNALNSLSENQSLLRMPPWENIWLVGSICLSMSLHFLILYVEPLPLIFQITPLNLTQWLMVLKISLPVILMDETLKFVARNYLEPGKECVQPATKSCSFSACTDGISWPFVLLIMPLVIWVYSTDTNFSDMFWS
SMILES,target,assay,test system,setting,endpoint,value
N#Cc1cccc(C(=O)Nc2ccc3c(c2)CN(C2CCC(=O)NC2=O)C3=O)c1 (stereo not shown),Cereblon/Ikaros,"degrader, live-cell HiBiT kinetic",Jurkat Ikaros-HiBiT LgBiT,,DC50,> 10 µM
CCC(C)(NCCc1ccc(C(F)(F)F)cc1Cl)c1cccc(NC2=CC(=O)N(C3CCC(=O)NC3=O)C2=O)c1 (stereo not shown),Cereblon/Ikaros,degrader,,,DC50,0.13 ± 0.044 µM
C=CCN1[C@H](CO)[C@@H](c2ccc(-c3cccc(C)c3C)cc2)[C@@H]1CNS(=O)(=O)c1ccccc1C(F)(F)F,IDE,"enzyme activity, inhibitor, fluorogenic peptide cleavage",,"partial inhibition curves, added: Mca-RPPGFSAFK(Dnp)-OH",EC50,0.1 µM
O=C1CCC(N2C(=O)C=C(Nc3cccc(S(=O)(=O)NCCc4ccc(C(F)(F)F)c(Cl)c4)c3)C2=O)C(=O)N1 (stereo not shown),Cereblon/Ikaros,"degrader, HiBiT luminescence, refers to: endogenous HiBiT-tagged protein",,,DC50,9.9 ± 2.5 µM
NC(=O)CNCCS(=O)(=O)O,Urea transporter 1,urea transport,,,Ki,no effect
O=C1CCC(N2Cc3cc(Nc4noc5ccccc45)ccc3C2=O)C(=O)N1 (stereo not shown),Cereblon/Ikaros,"degrader, live-cell HiBiT kinetic",Jurkat Ikaros-HiBiT LgBiT,,DC50,> 10 µM
CC(=O)Nc1ccccc1,Urea transporter 1,urea transport inhibition,,added: thiourea,Ki,4000 µM
NS(=O)(=O)c1nnc(NC(=O)CC2CCC(F)(F)CC2)s1,Enterococcus faecium γ-carbonic anhydrase,"CO2 hydration, inhibitor, stopped-flow kinetics",,,Ki,0.0648 µM
CCC(C)(NCCc1ccc(Cl)c(C(F)(F)F)c1)c1cccc(NC2=CC(=O)N(C3CCC(=O)NC3=O)C2=O)c1 (stereo not shown),Cereblon/Ikaros,degrader,human cells,,DC50,0.04 ± 0.005 µM
NS(=O)(=O)c1nnc(NC(=O)C2CCC3(CCCCC3)CC2)s1,Enterococcus faecium γ-carbonic anhydrase,"CO2 hydration, inhibitor, stopped-flow kinetics",,,Ki,0.327 µM
O=C(O)CNc1ccc2nncn2n1,USP33 ZnF-UBD domain,,,,Kd,> 1000 µM
Cc1cccc(C(=O)Nc2ccc3c(c2)CN(C2CCC(=O)NC2=O)C3=O)c1 (stereo not shown),Cereblon/Ikaros,"degrader, live-cell HiBiT kinetic",Jurkat Ikaros-HiBiT LgBiT,,DC50,> 10 µM
Cc1ccccc1S(=O)(=O)N1C/C=C\CN2[C@H](CO)[C@@H](c3ccc(-c4cccc(Cl)c4C)cc3)[C@@H]2C1,IDE,"enzyme activity, inhibitor, fluorescence kinetic",,added: Mca-RPPGFSAFK(Dnp)-OH substrate,EC50,0.035 µM
O=C(O)CNc1ncccn1,USP33 ZnF-UBD domain,,,,Kd,> 1000 µM
NS(=O)(=O)c1cnc(NC(=O)CCC2CCCCC2)s1,Enterococcus faecium γ-carbonic anhydrase,"CO2 hydration, inhibitor, stopped-flow kinetics",,,Ki,1.36 µM
FC1(F)Oc2ccc(CCOCCCCCc3ccccc3)cc2O1,"ATP2A2 (Sus scrofa, UniProt P11607)","ATPase activity, activator, NADH-coupled enzyme",enriched microsomes,,EC50,~2 µM
Cc1ccc(NC2=CC(=O)N(C3CCC(=O)NC3=O)C2=O)cc1C(C)(C)NCCc1ccc(C(F)(F)F)c(Cl)c1 (stereo not shown),Cereblon/Ikaros,"degrader, HiBiT luminescence, refers to: endogenous HiBiT-tagged protein",,,DC50,0.93 ± 0.021 µM
NS(=O)(=O)c1nnc(NC(=O)C2CCCC3(CCCCC3)O2)s1 (stereo not shown),Enterococcus faecium γ-carbonic anhydrase,"CO2 hydration, inhibitor, stopped-flow kinetics",,,Ki,0.311 µM
CCCNC(=O)N1CC(=O)N2[C@@H](CO)[C@@H](c3ccc(C#Cc4cccc(OC)c4)cc3)[C@@H]2C1,IDE,"enzyme activity, inhibitor, fluorogenic kinetic",,added: Mca-RPPGFSAFK(Dnp)-OH substrate,EC50,11 µM
O=C(O)CNC(=O)c1ccc(S(=O)(=O)N2CCC(n3c(=O)oc4ccccc43)CC2)cc1,USP33 ZnF-UBD domain,,,,Kd,> 1000 µM
COc1nc(-c2cccc(-c3ccccc3)c2C)ccc1CNCCNC(=O)CCCCCCCCCCC(=O)N1CCN(CCNC(=O)c2cc3c(=O)n4cccc(C)c4nc3n(CCc3cccs3)c2=N)CC1,"CD274 (Homo sapiens, UniProt Q9NZQ7)","degrader, western blot",HL-60,,DC50,~1 µM
NC[C@@H]1O[C@H](O[C@H]2[C@@H](O)[C@H](O[C@@H]3[C@@H](O)[C@H](N)C[C@H](N)[C@H]3O[C@H]3O[C@H](CN)[C@@H](O)[C@H](O)[C@H]3N)O[C@@H]2CO)[C@H](N)[C@@H](O)[C@@H]1O,(CCUG)10 RNA,SPR,,,Kd,2.46 µM
NS(=O)(=O)c1nnc(NC(=O)CN2CC3CCC2CC3)s1,Enterococcus faecium γ-carbonic anhydrase,"CO2 hydration, inhibitor, stopped-flow kinetics",,,Ki,0.0949 µM
O=C(O)CCc1cnn(-c2ccccc2)c1,USP33 ZnF-UBD domain,,,,Kd,> 1000 µM
Cc1ccccc1-c1ccc([C@H]2[C@H](CO)N3C(=O)CN(C(=O)c4ccc(F)cc4)C[C@@H]23)cc1,IDE,"enzyme activity, inhibitor, fluorogenic kinetic",,added: Mca-RPPGFSAFK(Dnp)-OH substrate,EC50,3 µM
OC[C@H]1OC(O)[C@H](O)[C@@H](O)[C@@H]1O (stereo partly shown),"CCAAT/enhancer-binding protein alpha (CEBPA, Homo sapiens, UniProt P49715)","binding, microscale thermophoresis",,,Kd,> 2000 µM
O=C(O)CN1Cc2ccccc2C1=O,USP33 ZnF-UBD domain,,,,Kd,> 1000 µM
O=C1CCC(N2C(=O)C=C(Nc3cccc(C4CCN(CCc5ccc(C(F)(F)F)c(Cl)c5)CC4)c3)C2=O)C(=O)N1 (stereo not shown),Cereblon/Ikaros,"degrader, HiBiT luminescence, refers to: endogenous HiBiT-tagged protein",,,DC50,0.9 ± 0.25 µM
Cc1ccccc1-c1ccc([C@H]2[C@@H](CO)N3CCCCN(C(=O)Nc4cccc(F)c4)C[C@@H]23)cc1,IDE,"enzyme activity, inhibitor, fluorogenic kinetic",,added: Mca-RPPGFSAFK(Dnp)-OH substrate,EC50,3.8 µM
NS(=O)(=O)c1nnc(NC(=O)C2CC23CCOCC3)s1 (stereo not shown),Enterococcus faecium γ-carbonic anhydrase,"CO2 hydration, inhibitor, stopped-flow kinetics",,,Ki,0.215 µM
O=C1CCC(N2C(=O)C=C(Nc3cccc(C4(NCCc5ccc(Cl)c(C(F)(F)F)c5)CCC4)c3)C2=O)C(=O)N1 (stereo not shown),Cereblon/Ikaros,degrader,human cells,,DC50,0.03 ± 0.003 µM
O=C1CCC(N2Cc3cc(NC(=O)c4cccc(F)c4)ccc3C2=O)C(=O)N1 (stereo not shown),Cereblon/Ikaros,"degrader, live-cell HiBiT kinetic",Jurkat Ikaros-HiBiT LgBiT,,DC50,> 10 µM
Cc1ccccc1-c1ccc([C@@H]2[C@@H](CO)N3C(=O)CN(S(C)(=O)=O)C[C@@H]23)cc1,IDE,"enzyme activity, inhibitor, fluorogenic kinetic",,added: Mca-RPPGFSAFK(Dnp)-OH substrate,EC50,1.8 µM
NS(=O)(=O)c1nnc(NC(=O)CCC2CC3CCC2C3)s1 (stereo not shown),Enterococcus faecium γ-carbonic anhydrase,"CO2 hydration, inhibitor, stopped-flow kinetics",,,Ki,0.267 µM
O=C(O)CCc1ccccc1,USP33 ZnF-UBD domain,,,,Kd,> 1000 µM
NS(=O)(=O)c1nnc(NC(=O)CN2CCC(F)CC2)s1,Enterococcus faecium γ-carbonic anhydrase,"CO2 hydration, inhibitor, stopped-flow kinetics",,,Ki,0.0744 µM
O=C(O)CCc1cnccn1,USP33 ZnF-UBD domain,,,,Kd,> 1000 µM
O=C1CCC(N2C(=O)C=C(Nc3cccc(-c4cn(CCc5ccc(C(F)(F)F)c(Cl)c5)nn4)c3)C2=O)C(=O)N1 (stereo not shown),Cereblon/Ikaros,"degrader, HiBiT luminescence, refers to: endogenous HiBiT-tagged protein",,,DC50,0.02 ± 2 µM
O=C(O)Cn1cnc2c(oc3ccccc32)c1=O,USP33 ZnF-UBD domain,,,,Kd,> 1000 µM
Cc1cccc(-c2ccc([C@@H]3[C@H]4CN(C(=O)c5cccnc5)CCCCN4[C@H]3CO)cc2)c1,IDE,"enzyme activity, inhibitor, fluorogenic kinetic",,added: Mca-RPPGFSAFK(Dnp)-OH substrate,EC50,6.6 µM
O=C1CCC(N2C(=O)C=C(Nc3cccc(C(NCCc4ccc(C(F)(F)F)c(Cl)c4)c4ccccc4)c3)C2=O)C(=O)N1 (stereo not shown),Cereblon/Ikaros,"degrader, HiBiT luminescence, refers to: endogenous HiBiT-tagged protein",,,DC50,0.09 ± 0.009 µM
Cc1cccc(-c2ccc([C@@H]3[C@@H](C(=O)O)N4CCCCN(S(=O)(=O)c5ccccc5C(F)(F)F)C[C@@H]34)cc2)c1C,IDE,"enzyme activity, inhibitor, fluorescence kinetic",,added: Mca-RPPGFSAFK(Dnp)-OH substrate,EC50,0.5 µM
Nc1nc2c(ncn2[C@@H]2O[C@@H]3CO[P@](=O)(O)O[C@H]4[C@@H](O)[C@H](n5cnc6c(=O)[nH]c(N)nc65)O[C@@H]4CO[P@](=O)(O)O[C@H]3[C@H]2O)c(=O)[nH]1,"Competence protein ComFB (comFB, Bacillus subtilis, UniProt P39146)",,,,Kd,0.17 ± 0.07 µM

# Excerpt of the above:
SMILES,target,assay,test system,setting,endpoint,value
O=C(O)CNc1ncccn1,USP33 ZnF-UBD domain,,,,Kd,> 1000 µM
NS(=O)(=O)c1nnc(NC(=O)C2CCCC3(CCCCC3)O2)s1 (stereo not shown),Enterococcus faecium γ-carbonic anhydrase,"CO2 hydration, inhibitor, stopped-flow kinetics",,,Ki,0.311 µM
O=C1CCC(N2C(=O)C=C(Nc3cccc(C4CCN(CCc5ccc(C(F)(F)F)c(Cl)c5)CC4)c3)C2=O)C(=O)N1 (stereo not shown),Cereblon/Ikaros,"degrader, HiBiT luminescence, refers to: endogenous HiBiT-tagged protein",,,DC50,0.9 ± 0.25 µM
